Measured values from different studies.
Several values in a cell are separate wells, animals, samples, runs or records.
TEC: Tyrosine-protein kinase Tec (TEC, Homo sapiens, UniProt P42680)
TEC phosphorylated: Tyrosine-protein kinase Tec, phosphorylated (TEC, Homo sapiens, UniProt P42680)

Cc1ccc(C(=O)Nc2ccc(CN3CCN(C)CC3)c(C(F)(F)F)c2)cc1C#Cc1cnc2cccnn12  upper asymptote (TEC; target engagement, NanoBRET; human cells): 18
Cc1ccc(-c2c(/C=C(\C#N)C(=O)NC(C)C)n(CCCO)c3ncnc(N)c23)cc1  remaining binding (TEC; cell-free assay, competition with immobilised ligand; 1 µM): 84%
C=CC(=O)N1Cc2nc(-c3cc(-c4cc(Cl)cnc4Cl)c(F)cc3F)n(-c3ccncn3)c2C1  inhibition (TEC; cell-free assay, inhibitor; 1 µM): > 50%
CNC1C[S+]2CC[S+]3CC[S+](C1)[Ru-4]321([N]=C=S)[n]2c3ccc(OC)cc3c3c4c(c5cc(F)c[n+]1c5c32)C(=O)NC4=O (stereo not shown)  remaining binding (TEC; KinomeScan; 0.1 µM; relative to: untreated): 93%
COCC12C(=O)NC3C4(C(OC)CC1O)C1CC5(O)C(OC)C(O)C(OC(C)=O)(C1C5OC(=O)c1ccccc1)C3(O)C(OC)C24 (stereo not shown)  remaining activity (TEC; kinase activity, inhibitor, ProQinase kinase profiling; 25 µM; relative to: control): 81% and 96%
C=CC(=O)Nc1cccc(-c2cnc3[nH]cc(C(=O)NC(C)(C)C)c3n2)c1  inhibition (TEC; kinase activity; 0.1 µM): 55% and 61%
NC(=O)[C@@H](O)C[C@H]1CCc2sc3ncnc(O[C@H]4CC[C@H](N5CCOCC5)CC4)c3c21  inhibition (TEC; enzyme activity, inhibitor; 10 µM): 13%
Cc1cccc(O[C@H]2CCC[C@@H](C(C)CNCc3ccncc3)C2)c1 (relative stereo)  inhibition (TEC; enzyme activity, inhibitor; 1 µM): 1%
CN1CC[C@@H](COc2cnc(C#N)cc2-c2ccn3nc(NC(=O)C4CC4)cc3c2)C1  inhibition (TEC phosphorylated; enzyme activity, inhibitor; 1 µM): 21%
CNC(=O)C[C@H](Cc1ccc(C#N)cc1)NC(=O)c1cc(-c2ccc(CN[C@H](C)c3ccc(C)cc3)o2)ccc1Cl  activity vs control (TEC phosphorylated; enzyme activity, inhibitor; 1 µM): 99%
C=CC(=O)Nc1cc(-c2nn(C3CCN(CCNC(=O)[C@H](C)CCC45CC6CC(CC(C6)C4)C5)CC3)c3ncnc(N)c23)ccc1Oc1ccccc1  inhibition (TEC; inhibitor, KiNativ profiling; biochemical; 2 µM): 59.2%
Nc1ncc(-c2cc(-c3cnn(CC(F)(F)F)c3)ncc2F)nc1C(=O)NC1CNCC(F)C1 (stereo not shown)  remaining activity (TEC; enzyme activity; 1 µM; relative to: DMSO control): 96.3%
CCN1CCN(Cc2ccc(C(=O)Nc3ccc(C)c(NCc4cnc5[nH]ccc5c4OC)c3)cc2C(F)(F)F)CC1  remaining binding (TEC; binding, competition with immobilised ligand; 1 µM): 18%
O=C(Cc1ccc(OCc2ccccc2)cc1)NC1(C(=O)O)CCN(C(=O)c2ccc(-c3cccc(Cl)c3)cc2)CC1  activity vs control (TEC phosphorylated; enzyme activity, inhibitor; 10 µM): 115%
COc1cc(Nc2nccc(-c3cnn4nc(OC)ccc34)n2)cc(C(F)(F)F)c1  remaining binding (TEC; binding, competition with immobilised ligand; 1 µM): 100%
CC(C)=CC1OC(C)(C)C2C=C3C(=O)C(Cl)=CC(O)C3C3C(O)C4OC4C(=O)C132 (stereo not shown)  remaining binding (TEC; cell-free assay, competition with immobilised ligand; 10 µM): 90%

Some of these lines once more:
CC(C)=CC1OC(C)(C)C2C=C3C(=O)C(Cl)=CC(O)C3C3C(O)C4OC4C(=O)C132 (stereo not shown)  remaining binding (TEC; cell-free assay, competition with immobilised ligand; 10 µM): 90%
COc1cc(Nc2nccc(-c3cnn4nc(OC)ccc34)n2)cc(C(F)(F)F)c1  remaining binding (TEC; binding, competition with immobilised ligand; 1 µM): 100%
